Measured values of several laboratories.
Lines come from different studies, so protocols differ. Numbers after ± are the reported error.

NS(=O)(=O)Nc1ncnc(OCCOc2ncc(Br)cn2)c1-c1ccc(Br)cc1  Cmax (healthy adult humans, both sexes, plasma; oral, 10/40 mg fixed-dose combination, single dose, fasted): 187 ng/mL
Oc1ccc2ccc3c4ccccc4cc4ccc1c2c43  Cmax (UPLC-AMS; human, plasma; oral, 50 ng of [14C]-BaP): 3.12 ± 2.83 fg BaP equivalents/mL
CCCCCOc1ccc(-c2cc(-c3ccc(C(=O)N[C@H]4C[C@@H](O)[C@@H](O)NC(=O)[C@@H]5[C@@H](O)[C@@H](C)CN5C(=O)[C@H]([C@H](O)CC(N)=O)NC(=O)[C@H]([C@H](O)[C@@H](O)c5ccc(O)c(OS(=O)(=O)O)c5)NC(=O)[C@@H]5C[C@@H](O)CN5C(=O)[C@H]([C@@H](C)O)NC4=O)cc3)no2)cc1  Cmax (human paediatric patients 2 to 5 years, plasma; intravenous, 4.5 mg/kg once daily, day 7, geometric mean): 20100 ng/mL
COc1ccc(C[C@@H]2NC(=O)[C@H]([C@@H](C)O)NC(=O)[C@@H]3[C@@H]4CCN3C(=O)[C@@H]3Cc5cn(c6ccc(F)cc56)CCCCCCN(Cc5ccc(cc5)CCNC(=O)[C@]5(C)CCCN5C2=O)C(=O)CCC(=O)N[C@@H](C)C(=O)N[C@H](CNC(=O)CCCCC[N+](C)(C)C)C(=O)N[C@@H](Cc2cccc(c2)CNC(=O)CO4)C(=O)N3)cc1  Cmax (fasted healthy humans, plasma; oral, 200 mg single dose, with 1800 mg Labrasol, geometric mean): 45.3 nM
CCCCCOc1ccc(-c2ccc(-c3ccc(C(=O)N[C@H]4C[C@@H](O)[C@@H](O)NC(=O)[C@@H]5[C@@H](O)[C@@H](C)CN5C(=O)[C@H]([C@@H](C)O)NC(=O)[C@H]([C@H](O)[C@@H](O)c5ccc(O)cc5)NC(=O)[C@@H]5C[C@@H](O)CN5C(=O)[C@H]([C@@H](C)O)NC4=O)cc3)cc2)cc1  Cmax (human infants, plasma; intravenous, 3 mg/kg loading dose): 6900 ng/mL
Oc1ccc2cc3ccc4cccc5ccc(c2c1)c3c45  Cmax (UPLC-AMS; human, plasma; oral, 50 ng of [14C]-BaP): 1.9 ± 2.28 fg BaP equivalents/mL
CC[C@@]1(O)C(=O)OCc2c1cc1n(c2=O)Cc2cc3c(CN(C)C)c(O)ccc3nc2-1  Cmax (human patients, plasma; oral, 2.5 mg daily for 5 days, day 5 cycle 2, geometric mean, added: pazopanib 800 mg daily): 11.1 ng/mL
Cc1ncc2n1-c1ccc(Cl)cc1C(c1ccccc1F)=NC2  Cmax (human, plasma; intravenous, 10 µg, microdose, baseline, geometric mean): 0.155 ng/mL
Cc1ncc2n1-c1ccc(Cl)cc1C(c1ccccc1F)=NC2  Cmax (human, plasma; oral, 7.5 mg, alone before amenamevir 400 mg): 30.2 ± 22.7 ng/mL
CC[C@H](C)[C@H](NC(=O)[C@H](CC(C)C)NC(=O)[C@H](Cc1c[nH]c2ccccc12)NC(=O)[C@H](CCC(N)=O)NC(=O)[C@@H](NC(=O)[C@H](Cc1ccccc1)NC(=O)[C@H](C)NC(=O)[C@H](CCCCNC(=O)COCCOCCNC(=O)COCCOCCNC(=O)CC[C@H](NC(=O)CCCCCCCCCCCCCCCCCCC(=O)O)C(=O)O)NC(=O)[C@H](CCC(N)=O)NC(=O)[C@H](C)NC(=O)[C@@H](NC(=O)[C@H](CCCCN)NC(=O)[C@H](CC(=O)O)NC(=O)[C@H](CC(C)C)NC(=O)C(C)(C)NC(=O)[C@@H](NC(=O)[C@H](CO)NC(=O)[C@H](Cc1ccc(O)cc1)NC(=O)[C@H](CC(=O)O)NC(=O)[C@H](CO)NC(=O)[C@@H](NC(=O)[C@H](Cc1ccccc1)NC(=O)[C@@H](NC(=O)CNC(=O)[C@H](CCC(=O)O)NC(=O)C(C)(C)NC(=O)[C@@H](N)Cc1ccc(O)cc1)[C@@H](C)O)[C@@H](C)O)[C@@H](C)CC)[C@@H](C)CC)C(C)C)C(=O)N[C@@H](C)C(=O)NCC(=O)NCC(=O)N1CCC[C@H]1C(=O)N[C@@H](CO)C(=O)N[C@@H](CO)C(=O)NCC(=O)N[C@@H](C)C(=O)N1CCC[C@H]1C(=O)N1CCC[C@H]1C(=O)N1CCC[C@H]1C(=O)N[C@@H](CO)C(N)=O  Cmax (human, moderate hepatic impairment, plasma; subcutaneous, 5 mg single dose, geometric LSM, weight-adjusted): 526 ng/mL
CC(C)c1nc(CN(C)C(=O)N[C@H](C(=O)N[C@@H](Cc2ccccc2)C[C@H](O)[C@H](Cc2ccccc2)NC(=O)OCc2cncs2)C(C)C)cs1  Cmax (healthy human volunteers, plasma; oral, dose not given, added: warfarin plus 2D regimen): 2070 ng/mL
CCCCCOc1ccc(-c2ccc(-c3ccc(C(=O)N[C@H]4C[C@@H](O)[C@@H](OCC[N+](C)(C)C)NC(=O)[C@@H]5[C@@H](O)[C@@H](C)CN5C(=O)[C@H]([C@@H](C)O)NC(=O)[C@H]([C@H](O)[C@@H](O)c5ccc(O)cc5)NC(=O)[C@@H]5C[C@@H](O)CN5C(=O)[C@H]([C@@H](C)O)NC4=O)cc3)cc2)cc1  Cmax (healthy adult humans, plasma; subcutaneous, 10 mg, median): 105 ng/mL
COc1ccsc1CNCC[C@@]1(c2ccccn2)CCOC2(CCCC2)C1  Cmax (healthy human, normal renal function, plasma; intravenous, 1 mg single dose, geometric mean): 8.79 ng/mL
CN1CC(=O)N2[C@H](c3ccc4c(c3)OCO4)c3[nH]c4ccccc4c3C[C@@H]2C1=O  Cmax (healthy adult humans, both sexes, plasma; oral, 10/40 mg fixed-dose combination, single dose, fed, high-fat breakfast): 677 ng/mL
O[C@H]1CCCN[C@@H]1CCCn1cnc2c(Cl)c(Cl)ccc21  Cmax (healthy human volunteers, plasma; oral, 25 mg, day 1, multiple ascending dose): 26.6 ng/mL
CC[C@H](C)[C@H](NC(=O)[C@H](CC(C)C)NC(=O)[C@H](Cc1c[nH]c2ccccc12)NC(=O)[C@H](CCC(N)=O)NC(=O)[C@@H](NC(=O)[C@H](Cc1ccccc1)NC(=O)[C@H](C)NC(=O)[C@H](CCCCNC(=O)COCCOCCNC(=O)COCCOCCNC(=O)CC[C@H](NC(=O)CCCCCCCCCCCCCCCCCCC(=O)O)C(=O)O)NC(=O)[C@H](CCC(N)=O)NC(=O)[C@H](C)NC(=O)[C@@H](NC(=O)[C@H](CCCCN)NC(=O)[C@H](CC(=O)O)NC(=O)[C@H](CC(C)C)NC(=O)C(C)(C)NC(=O)[C@@H](NC(=O)[C@H](CO)NC(=O)[C@H](Cc1ccc(O)cc1)NC(=O)[C@H](CC(=O)O)NC(=O)[C@H](CO)NC(=O)[C@@H](NC(=O)[C@H](Cc1ccccc1)NC(=O)[C@@H](NC(=O)CNC(=O)[C@H](CCC(=O)O)NC(=O)C(C)(C)NC(=O)[C@@H](N)Cc1ccc(O)cc1)[C@@H](C)O)[C@@H](C)O)[C@@H](C)CC)[C@@H](C)CC)C(C)C)C(=O)N[C@@H](C)C(=O)NCC(=O)NCC(=O)N1CCC[C@H]1C(=O)N[C@@H](CO)C(=O)N[C@@H](CO)C(=O)NCC(=O)N[C@@H](C)C(=O)N1CCC[C@H]1C(=O)N1CCC[C@H]1C(=O)N1CCC[C@H]1C(=O)N[C@@H](CO)C(N)=O  Cmax (human, mild renal impairment, plasma; subcutaneous, 5 mg single dose, eGFR 60-89, geometric mean): 353 ng/mL
Cc1cnc(C(=O)N[C@H]2CCCCC/C=C\[C@@H]3C[C@@]3(C(=O)NS(=O)(=O)C3CC3)NC(=O)[C@@H]3C[C@@H](Oc4nc5ccccc5c5ccccc45)CN3C2=O)cn1  Cmax (healthy human volunteers, plasma; oral, dose not given, added: warfarin plus 2D regimen): 1080 ng/mL
COc1cnc(-n2cnc(C)n2)c2[nH]cc(C(=O)C(=O)N3CCN(C(=O)c4ccccc4)CC3)c12  Cmax (human; oral, dose not given, added: fostemsavir 600 mg BID with methadone): 1500 ng/mL
COC(=O)N[C@H](C(=O)N1CCC[C@H]1C(=O)Nc1ccc([C@@H]2CC[C@@H](c3ccc(NC(=O)[C@@H]4CCCN4C(=O)[C@@H](NC(=O)OC)C(C)C)cc3)N2c2ccc(C(C)(C)C)cc2)cc1)C(C)C  Cmax (healthy human volunteers, plasma; oral, dose not given, added: pravastatin plus 2D regimen): 124 ng/mL
C=CCNC1=C2C[C@@H](C)C[C@H](OC)[C@H](O)[C@@H](C)/C=C(\C)[C@H](OC(N)=O)[C@@H](OC)/C=C\C=C(/C)C(=O)NC(=CC1=O)C2=O  Cmax (human cancer patients, plasma; intravenous, 150 mg/m^2 over 60 min, cycle 1 day 1, given alone): 2480 ± 836 ng/mL

Repeated from above:
Oc1ccc2ccc3c4ccccc4cc4ccc1c2c43  Cmax (UPLC-AMS; human, plasma; oral, 50 ng of [14C]-BaP): 3.12 ± 2.83 fg BaP equivalents/mL
Cc1ncc2n1-c1ccc(Cl)cc1C(c1ccccc1F)=NC2  Cmax (human, plasma; intravenous, 10 µg, microdose, baseline, geometric mean): 0.155 ng/mL
Cc1ncc2n1-c1ccc(Cl)cc1C(c1ccccc1F)=NC2  Cmax (human, plasma; oral, 7.5 mg, alone before amenamevir 400 mg): 30.2 ± 22.7 ng/mL
